Measured values from different studies.
± marks the error that the study gave.
UniProt O14672, sequence (whole entry, looked up): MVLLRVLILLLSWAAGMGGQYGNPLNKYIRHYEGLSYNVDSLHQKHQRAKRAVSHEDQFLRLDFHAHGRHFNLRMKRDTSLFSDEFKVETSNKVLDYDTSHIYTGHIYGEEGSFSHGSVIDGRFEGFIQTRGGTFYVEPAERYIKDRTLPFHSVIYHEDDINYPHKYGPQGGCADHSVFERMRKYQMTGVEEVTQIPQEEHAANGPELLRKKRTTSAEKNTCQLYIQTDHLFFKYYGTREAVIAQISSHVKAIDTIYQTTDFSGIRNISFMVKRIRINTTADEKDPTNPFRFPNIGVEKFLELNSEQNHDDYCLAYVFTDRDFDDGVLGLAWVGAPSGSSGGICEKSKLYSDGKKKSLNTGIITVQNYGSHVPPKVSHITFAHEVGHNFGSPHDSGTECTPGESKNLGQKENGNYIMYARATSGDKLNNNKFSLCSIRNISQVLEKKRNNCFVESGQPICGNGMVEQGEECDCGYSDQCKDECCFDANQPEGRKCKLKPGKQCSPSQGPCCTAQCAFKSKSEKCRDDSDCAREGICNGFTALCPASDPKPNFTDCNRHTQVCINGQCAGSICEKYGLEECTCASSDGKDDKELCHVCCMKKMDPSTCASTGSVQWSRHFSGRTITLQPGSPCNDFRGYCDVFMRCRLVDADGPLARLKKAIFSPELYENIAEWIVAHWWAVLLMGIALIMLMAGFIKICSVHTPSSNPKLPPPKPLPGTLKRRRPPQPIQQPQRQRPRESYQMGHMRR
UniProt O00187, sequence (whole entry, looked up): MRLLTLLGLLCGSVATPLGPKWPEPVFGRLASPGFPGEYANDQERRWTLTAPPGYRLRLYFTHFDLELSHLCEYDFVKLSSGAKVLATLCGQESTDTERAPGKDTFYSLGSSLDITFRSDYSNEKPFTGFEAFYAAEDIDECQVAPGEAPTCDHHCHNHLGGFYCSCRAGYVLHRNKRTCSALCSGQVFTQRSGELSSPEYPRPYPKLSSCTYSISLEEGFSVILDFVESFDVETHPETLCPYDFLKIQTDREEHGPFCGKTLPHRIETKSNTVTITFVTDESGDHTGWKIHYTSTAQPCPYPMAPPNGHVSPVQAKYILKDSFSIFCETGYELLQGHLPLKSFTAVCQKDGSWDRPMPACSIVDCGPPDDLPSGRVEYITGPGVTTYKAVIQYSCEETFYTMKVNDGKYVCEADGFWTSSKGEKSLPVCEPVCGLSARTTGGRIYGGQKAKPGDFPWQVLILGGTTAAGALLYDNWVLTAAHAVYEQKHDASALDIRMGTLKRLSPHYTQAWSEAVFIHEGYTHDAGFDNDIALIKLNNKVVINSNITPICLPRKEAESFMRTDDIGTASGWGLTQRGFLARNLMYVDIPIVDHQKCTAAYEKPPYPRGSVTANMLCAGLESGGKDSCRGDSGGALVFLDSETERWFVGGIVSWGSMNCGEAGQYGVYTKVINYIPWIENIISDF
UniProt P30550, sequence (whole entry, looked up): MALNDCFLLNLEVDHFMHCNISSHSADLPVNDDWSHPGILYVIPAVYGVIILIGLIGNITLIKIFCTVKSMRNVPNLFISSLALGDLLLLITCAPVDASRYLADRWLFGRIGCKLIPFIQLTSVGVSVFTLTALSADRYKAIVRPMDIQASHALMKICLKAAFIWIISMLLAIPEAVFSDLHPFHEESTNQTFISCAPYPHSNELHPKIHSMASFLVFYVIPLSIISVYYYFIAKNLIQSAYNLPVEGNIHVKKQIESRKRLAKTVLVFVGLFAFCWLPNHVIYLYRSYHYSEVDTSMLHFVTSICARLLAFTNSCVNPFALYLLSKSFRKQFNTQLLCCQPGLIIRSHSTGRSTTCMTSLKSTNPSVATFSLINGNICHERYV
UniProt Q99828, sequence (whole entry, looked up): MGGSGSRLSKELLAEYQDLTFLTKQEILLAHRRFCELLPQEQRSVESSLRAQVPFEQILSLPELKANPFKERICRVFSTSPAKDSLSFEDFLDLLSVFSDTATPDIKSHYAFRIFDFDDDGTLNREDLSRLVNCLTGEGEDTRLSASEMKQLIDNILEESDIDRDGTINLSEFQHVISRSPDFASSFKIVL
UniProt Q62968, sequence (whole entry, looked up): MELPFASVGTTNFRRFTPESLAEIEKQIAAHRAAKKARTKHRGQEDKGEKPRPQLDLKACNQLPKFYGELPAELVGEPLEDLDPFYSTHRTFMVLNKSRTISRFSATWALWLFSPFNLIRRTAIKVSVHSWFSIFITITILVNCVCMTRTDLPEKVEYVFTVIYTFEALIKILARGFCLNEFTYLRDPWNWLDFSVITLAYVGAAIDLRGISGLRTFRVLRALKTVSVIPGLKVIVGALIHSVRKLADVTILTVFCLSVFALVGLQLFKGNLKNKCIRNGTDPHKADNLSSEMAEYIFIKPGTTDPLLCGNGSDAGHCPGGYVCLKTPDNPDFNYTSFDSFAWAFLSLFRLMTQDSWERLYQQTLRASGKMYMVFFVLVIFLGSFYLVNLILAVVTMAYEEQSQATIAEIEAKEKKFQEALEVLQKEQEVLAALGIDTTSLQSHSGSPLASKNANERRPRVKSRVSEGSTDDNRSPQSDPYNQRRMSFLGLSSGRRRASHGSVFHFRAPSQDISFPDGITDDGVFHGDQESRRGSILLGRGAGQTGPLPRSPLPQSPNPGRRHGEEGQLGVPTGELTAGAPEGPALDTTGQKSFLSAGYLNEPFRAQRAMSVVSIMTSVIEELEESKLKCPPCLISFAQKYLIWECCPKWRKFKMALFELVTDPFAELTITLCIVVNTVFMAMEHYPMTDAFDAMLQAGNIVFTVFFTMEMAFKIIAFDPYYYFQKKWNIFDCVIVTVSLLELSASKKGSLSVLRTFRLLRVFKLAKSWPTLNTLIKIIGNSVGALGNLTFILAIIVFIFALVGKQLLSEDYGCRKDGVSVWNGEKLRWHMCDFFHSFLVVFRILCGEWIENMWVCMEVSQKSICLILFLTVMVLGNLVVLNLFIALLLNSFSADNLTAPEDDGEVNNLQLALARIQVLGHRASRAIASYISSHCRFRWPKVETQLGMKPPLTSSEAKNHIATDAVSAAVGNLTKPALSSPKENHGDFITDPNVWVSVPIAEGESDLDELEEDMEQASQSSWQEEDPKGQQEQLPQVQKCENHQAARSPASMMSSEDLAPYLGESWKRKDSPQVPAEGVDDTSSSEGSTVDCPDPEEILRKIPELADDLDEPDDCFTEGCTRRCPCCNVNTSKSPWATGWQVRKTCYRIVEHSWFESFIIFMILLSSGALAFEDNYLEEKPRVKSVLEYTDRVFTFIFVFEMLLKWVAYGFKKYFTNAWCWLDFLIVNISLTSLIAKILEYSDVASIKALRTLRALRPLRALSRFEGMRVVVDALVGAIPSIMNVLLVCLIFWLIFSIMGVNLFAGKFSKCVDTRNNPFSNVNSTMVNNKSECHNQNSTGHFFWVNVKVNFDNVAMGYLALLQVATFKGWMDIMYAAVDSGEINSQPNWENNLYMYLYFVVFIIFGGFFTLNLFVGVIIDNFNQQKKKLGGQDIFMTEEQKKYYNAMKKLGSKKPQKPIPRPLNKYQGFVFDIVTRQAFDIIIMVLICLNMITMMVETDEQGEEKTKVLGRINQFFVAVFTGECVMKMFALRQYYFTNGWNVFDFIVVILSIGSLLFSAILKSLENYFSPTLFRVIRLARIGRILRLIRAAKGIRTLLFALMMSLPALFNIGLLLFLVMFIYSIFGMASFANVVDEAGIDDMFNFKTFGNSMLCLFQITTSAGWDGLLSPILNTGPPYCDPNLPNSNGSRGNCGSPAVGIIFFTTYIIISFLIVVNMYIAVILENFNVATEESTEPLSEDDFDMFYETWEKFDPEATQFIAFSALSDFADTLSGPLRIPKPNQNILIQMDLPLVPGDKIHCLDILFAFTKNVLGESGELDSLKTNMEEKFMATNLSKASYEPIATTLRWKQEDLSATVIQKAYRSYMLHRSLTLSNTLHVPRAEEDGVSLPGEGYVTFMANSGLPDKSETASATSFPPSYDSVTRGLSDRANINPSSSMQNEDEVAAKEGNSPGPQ
UniProt P97612, sequence (whole entry, looked up): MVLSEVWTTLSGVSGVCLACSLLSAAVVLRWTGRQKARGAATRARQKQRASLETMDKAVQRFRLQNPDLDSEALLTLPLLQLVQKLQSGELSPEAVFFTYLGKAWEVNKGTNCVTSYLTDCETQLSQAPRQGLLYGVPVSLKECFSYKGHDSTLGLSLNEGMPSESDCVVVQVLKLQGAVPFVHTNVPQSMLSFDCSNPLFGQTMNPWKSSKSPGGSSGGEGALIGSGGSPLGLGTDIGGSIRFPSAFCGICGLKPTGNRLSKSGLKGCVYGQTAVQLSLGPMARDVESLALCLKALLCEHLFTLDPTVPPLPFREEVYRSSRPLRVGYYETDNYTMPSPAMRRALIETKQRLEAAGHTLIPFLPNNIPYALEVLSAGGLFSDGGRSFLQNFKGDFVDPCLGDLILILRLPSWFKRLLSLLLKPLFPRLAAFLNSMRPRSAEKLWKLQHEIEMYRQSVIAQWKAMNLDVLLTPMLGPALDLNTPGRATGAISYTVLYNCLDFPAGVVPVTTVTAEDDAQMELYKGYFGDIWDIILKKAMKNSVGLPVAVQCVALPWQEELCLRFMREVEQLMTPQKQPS
UniProt Q96DB2, sequence (whole entry, looked up): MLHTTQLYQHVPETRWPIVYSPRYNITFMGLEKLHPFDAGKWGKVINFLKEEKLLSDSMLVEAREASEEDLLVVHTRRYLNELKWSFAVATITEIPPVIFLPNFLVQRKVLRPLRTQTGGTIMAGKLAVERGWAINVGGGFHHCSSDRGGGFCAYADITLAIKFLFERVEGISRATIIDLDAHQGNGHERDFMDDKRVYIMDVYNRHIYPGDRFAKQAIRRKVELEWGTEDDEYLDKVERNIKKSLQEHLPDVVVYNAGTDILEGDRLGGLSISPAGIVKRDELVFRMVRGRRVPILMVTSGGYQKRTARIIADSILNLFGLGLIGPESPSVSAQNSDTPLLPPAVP

`O=C(Nc1ccccc1)c1ccccc1O` has an IC50 of over 10000 nM (HDAC11 (Homo sapiens, UniProt Q96DB2); enzyme activity, inhibitor, fluorescence).
`CC1CCc2c(sc3ncnc(Sc4nnc(CN5CCCC5)o4)c23)C1` (stereo not shown) has an IC50 of over 100000 nM (Genome polyprotein, 3C protease (rhinovirus B14, UniProt P03303); 3C protease activity, SAMDI-MS; human rhinovirus).
The IC50 of `CC(C)C[C@@H]1NC(=O)[C@H](CCCNC(=N)N)NC(=O)[C@H](CCCCN)NC(=O)[C@H](CC(=O)O)NC(=O)[C@H](CCCCN)NC(=O)[C@@H](CO)NC1=O` is reported as over 10000 nM (ADAM10 (Homo sapiens, UniProt O14672); enzyme activity, inhibitor, fluorescence).
The IC50 of `NNC(=O)c1ccc(-n2nc(-c3ccccc3O)nc2-c2ccccc2O)cc1` is reported as 12700 ± 2090 nM (5-lipoxygenase).
For `CCN(Cc1ccccc1)C(=O)CCc1nc(CN2CCN(C(=O)Cc3ccc(OC)c(OC)c3)CC2)no1`, the IC50 was 240 nM (Scn10a (Rattus norvegicus, UniProt Q62968); ion current, inhibitor, patch clamp).
For `CC[C@H](C)[C@@H]1NC(=O)[C@H]([C@@H](C)O)NC(=O)CNC(=O)[C@H](CCCNC(=N)N)NC(=O)[C@H](CC(C)C)NC(=O)[C@@H]2CSSC[C@H](NC1=O)C(=O)N[C@H](C(=O)N[C@@H](CO)C(=O)NCC(N)=O)CSSC[C@H](NC(=O)[C@H](C)N)C(=O)N[C@@H](C)C(=O)N[C@@H](Cc1c[nH]c3ccccc13)C(=O)N2`, the IC50 was 0.7 nM (Chymotrypsinogen A, activated (alpha-chymotrypsin) (Bos taurus, UniProt P00766); enzyme activity, inhibitor; 1 h, pH 7.4, 25 °C, together with: N-succinyl-Ala-Ala-Pro-Phe p-nitroanilide).
The IC50 of `CSCC[C@H](NC(=O)[C@H](C)NC(=O)[C@H](CCCNC(=N)N)NC(=O)[C@H](Cc1ccc(O)cc1)NC(=O)[C@H](Cc1c[nH]c2ccccc12)NC(=O)[C@H](Cc1ccccc1)NC(=O)[C@H](CO)NC(=O)CNC(=O)CNC(=O)[C@H](CC(=O)O)NC(=O)[C@@H](N)CCC(=O)O)C(=O)N[C@@H](CCCCN)C(=O)N[C@@H](C)C(=O)N[C@@H](CC(C)C)C(=O)N[C@@H](Cc1ccc(O)cc1)C(=O)NCC(N)=O` is reported as 16 nM (CIB1 (Homo sapiens, UniProt Q99828); peptide binding, inhibitor, TR-FRET competition).
For `CC[C@H](C)[C@@H]1NC(=O)[C@H](Cc2ccccc2)NC(=O)[C@H](C)NC(=O)[C@@H](NC(=O)[C@@H](NC(=O)[C@H](CO)NC(=O)[C@@H](N)Cc2ccc(O)cc2)[C@@H](C)O)CSC(=O)[C@H](CCSC)NC1=O`, the IC50 was 0.0827 nM (Accessory gene regulator protein C (Staphylococcus aureus, UniProt Q309Z2)).
`CC(C)C[C@H](NC(=O)[C@H](CC(C)C)NC(=O)[C@H](Cc1c[nH]cn1)NC(=O)CNC(=O)[C@@H](NC(=O)[C@H](C)NC(=O)[C@H](Cc1c[nH]c2ccccc12)NC(=O)[C@H](CCC(N)=O)NC(=O)[C@H](CC(N)=O)NC(=O)CNC(=O)[C@H](CC(C)C)NC(=O)[C@H](CCCNC(=N)N)NC(=O)[C@H](CCC(N)=O)NC(=O)[C@@H]1CCC(=O)N1)C(C)C)C(N)=O` has an IC50 of 1 nM (GRPR (Homo sapiens, UniProt P30550); ligand displacement in cells, radioligand).
`CC[C@H](C)[C@H](NC(=O)[C@@H]1CSSC[C@H](NC(=O)[C@H](Cc2ccc(O)cc2)NC(=O)CN)C(=O)N[C@@H](CO)C(=O)N[C@@H](CCCNC(=N)N)C(=O)N[C@@H](CO)C(=O)N[C@@H](Cc2ccc(O)cc2)C(=O)N2CCC[C@H]2C(=O)N2CCC[C@H]2C(=O)N[C@@H](C(C)C)C(=O)N1)C(=O)N1CCC[C@H]1C(=O)N[C@@H](CC(=O)O)C(N)=O` has an IC50 of 473 nM (Mannan-binding lectin serine protease 2 (Homo sapiens, UniProt O00187); C3 deposition, inhibitor, ELISA; 100-fold diluted human serum; 30 min preincubation).
For `COc1ccc(S(=O)(=O)n2nc(OC(=O)c3ccccc3)cc2N)cc1`, the IC50 was 8500 ± 300 nM (Genome polyprotein, NS2B-NS3 protease (dengue virus type 2, UniProt P29990); enzyme activity, inhibitor; 30 min preincubation, together with: 20 µM Bz-nKRR-AMC).
`O=C(NCCCCCn1ccc2ccccc21)Oc1ccccc1` gave an IC50 of 50 nM (Faah (Rattus norvegicus, UniProt P97612); rat brain homogenate; 60 min, 37 °C).
`CC(C)C[C@H](NC(=O)[C@H](CCCNC(=N)N)NC(=O)[C@@H](N)CS)C(=O)N[C@@H](CC(N)=O)C(=O)O` has an IC50 of 234000 nM (PPO3 (Agaricus bisporus, UniProt C7FF04); enzyme activity, inhibitor).

For quick reference, copied from above:
For `CC[C@H](C)[C@@H]1NC(=O)[C@H]([C@@H](C)O)NC(=O)CNC(=O)[C@H](CCCNC(=N)N)NC(=O)[C@H](CC(C)C)NC(=O)[C@@H]2CSSC[C@H](NC1=O)C(=O)N[C@H](C(=O)N[C@@H](CO)C(=O)NCC(N)=O)CSSC[C@H](NC(=O)[C@H](C)N)C(=O)N[C@@H](C)C(=O)N[C@@H](Cc1c[nH]c3ccccc13)C(=O)N2`, the IC50 was 0.7 nM (Chymotrypsinogen A, activated (alpha-chymotrypsin) (Bos taurus, UniProt P00766); enzyme activity, inhibitor; 1 h, pH 7.4, 25 °C, together with: N-succinyl-Ala-Ala-Pro-Phe p-nitroanilide).
For `CC[C@H](C)[C@@H]1NC(=O)[C@H](Cc2ccccc2)NC(=O)[C@H](C)NC(=O)[C@@H](NC(=O)[C@@H](NC(=O)[C@H](CO)NC(=O)[C@@H](N)Cc2ccc(O)cc2)[C@@H](C)O)CSC(=O)[C@H](CCSC)NC1=O`, the IC50 was 0.0827 nM (Accessory gene regulator protein C (Staphylococcus aureus, UniProt Q309Z2)).
